Published values of several laboratories.
A part holds a random share of what one study measured.

Series 1 — technique: aptamer microarray, sandwich; form: DNA with 2'F-ANA; sample: in vitro; tested at: 200 nM; together with: Cy3 exosite-II aptamer, 400 nM; reading: higher = stronger binding; sequence: GGTTGGTGTGGTTGG
Target: Prothrombin, mature alpha-thrombin (F2, Homo sapiens, UniProt P00734)
Notes: whole 15-mer aptamer, many near background
Modification | mean fluorescence intensity [a.u.]
2'F-ANA at 2 3 4 9 12 14 | 335
2'F-ANA at 3 4 5 7 8 11 12 13 14 | 55.6
2'F-ANA at 2 4 5 11 14 | 70.8
2'F-ANA at 3 4 5 6 8 9 13 14 15 | 49.9
2'F-ANA at 1 3 4 7 10 11 13 | 55.6

Series 2 — technique: protein binding microarray; form: double-stranded DNA, one strand shown; sample: in vitro; tested at: not given; relative to: not given; reading: higher = stronger binding
Target: Histone acetyltransferase KAT6A, both winged helices, GST fusion (KAT6A, Homo sapiens, UniProt Q92794, residues 1-181)
Notes: 8-mer, flanks averaged, mean of 2 arrays, mostly near background
Target sequence (chain): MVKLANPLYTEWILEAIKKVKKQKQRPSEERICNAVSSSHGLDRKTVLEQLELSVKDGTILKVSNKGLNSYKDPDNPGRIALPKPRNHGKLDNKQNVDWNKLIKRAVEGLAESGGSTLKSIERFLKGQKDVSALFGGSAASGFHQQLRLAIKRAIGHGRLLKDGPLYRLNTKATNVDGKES
Sequence | E-score
AGTCTATA | -0.0408
GCTTAGCC | 0.168
AGCATAGC | -0.0566
ACGCTCAC | 0.197

Series 3 — technique: RNA Bind-n-Seq; form: RNA; sample: in vitro; tested at: 200 nM; notes: whole 134-nt RNA, ends assumed; together with: 150 mM KCl; relative to: input library; reading: higher = stronger binding
Target: Fragile X messenger ribonucleoprotein 1, C-terminal low-complexity region (Fmr1, Mus musculus, UniProt P35922)
Sequence | log2 enrichment
GGGAGUUCUACAGUCCGACGAUCUCAAGUCCUGUGCUACACAUCGUAUGUACCGAAUCGGUUUUUGGAGGUUUUUGGAAAGUAUUAUGUUACGCCGUUCGGAUCUGCACUUCCUGGAAUUCUCGGGUGUCAAGG | -0.418
GGGAGUUCUACAGUCCGACGAUCAAGUCCUGUGCUACACAUCGUAUGUACCGAAUCAAAUUUAAAUUUAAACCCCCAAAAAAGUAUUAUGUUACGCCGUUCGGAUCUGCACUUUGGAAUUCUCGGGUGUCAAGG | 0.227
GGGAGUUCUACAGUCCGACGAUCGCAGGAAGUAAAAACAAAUGGAAAUGCUUCGGAUAGUGGCAGGGGUGGGGGUUGCUAAGGAAAGGGUGGGAUGGGAGUGGGUAAAGCGUUUGGAAUUCUCGGGUGUCAAGG | 0.447
GGGAGUUCUACAGUCCGACGAUCCAAGUCCUGUGCUACACAUCGUAUGUACCGAAUCGGUUUUUGGAGGUUUUUUUGGAAAGUAUUAUGUUACGCCGUUCGGAUCUGCACUUCUGGAAUUCUCGGGUGUCAAGG | -0.626

Mixed results
Substance | target | assay | system | conditions | how to read | endpoint | result
PhoQ, residues 284 288 289 292 302 303 SIHLQL | PhoP, residues 12 14 15 18 19 IQSYL (Escherichia coli, UniProt P23836) | Sort-seq, measured: YFP reporter | E. coli | PhoQ-PhoP variant library, together with: 10 µM Mg2+ | relative to: high Mg2+ state, higher = stronger signaling | fold induction | 6.84

Repeated from above (series 2):
Sequence | E-score
AGTCTATA | -0.0408
